Published values gathered from unrelated publications.
Numbered parts are unrelated; each lists some results of a single study.

Block 1
Target: Protein C-ets-1 (ETS1, Homo sapiens, UniProt P14921, residues 1-441, K379A, full length assumed)
Chain of UniProt P14921 (whole entry, unmodified, looked up): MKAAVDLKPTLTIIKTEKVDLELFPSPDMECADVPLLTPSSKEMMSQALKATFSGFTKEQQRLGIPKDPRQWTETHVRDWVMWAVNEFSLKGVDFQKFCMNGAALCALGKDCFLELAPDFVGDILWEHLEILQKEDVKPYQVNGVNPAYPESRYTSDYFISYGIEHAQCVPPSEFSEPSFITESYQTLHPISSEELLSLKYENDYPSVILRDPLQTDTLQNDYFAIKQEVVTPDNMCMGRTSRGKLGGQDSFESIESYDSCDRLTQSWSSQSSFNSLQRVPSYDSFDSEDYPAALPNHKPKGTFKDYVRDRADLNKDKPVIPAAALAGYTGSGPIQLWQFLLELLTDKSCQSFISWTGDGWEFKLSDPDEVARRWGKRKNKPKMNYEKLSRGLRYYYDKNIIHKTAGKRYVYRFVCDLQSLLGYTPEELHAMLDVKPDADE
Technique: protein-binding microarray
Form: double-stranded DNA, one strand shown
Sample: in vitro
Tested at: not given
Notes: k-mer, scored over probes, only values ≥0.25
Reading: higher = stronger binding
`CGCGTATC` has an E-score of 0.31.
`CCGGGGAC` has an E-score of 0.367.
The E-score of `AAACACCG` is reported as 0.307.
`CCGGTTAA` gave an E-score of 0.437.
`TACCGGCA` gave an E-score of 0.412.
`GGATGTCA` gave an E-score of 0.281.
`CGACCGCC` has an E-score of 0.296.

Block 2
Target: Prothrombin, mature alpha-thrombin (F2, Homo sapiens, UniProt P00734)
Technique: aptamer microarray, sandwich
Form: DNA with 2'F-ANA
Sample: in vitro
Tested at: 200 nM
Notes: whole 15-mer aptamer, many near background
With: Cy3 exosite-II aptamer, 400 nM
Reading: higher = stronger binding
Oligonucleotide: GGTTGGTGTGGTTGG
Under “mean fluorescence intensity”, `2'F-ANA at 2 3 6 7 8 10 11` is recorded as 335 a.u.
`2'F-ANA at 1 2 8` — result for “mean fluorescence intensity”: 226 a.u.
`2'F-ANA at 2 3 4 7 9 11 13 14 15` — result for “mean fluorescence intensity”: 236 a.u.
`2'F-ANA at 3 4 5 6 7 8 10 11 12 13`: “mean fluorescence intensity” 50.3 a.u.
`2'F-ANA at 2 3 4 5 6 8 10 11 13 14` — result for “mean fluorescence intensity”: 53.7 a.u.

Block 3
Target: Interferon regulatory factor 7, full length, phosphomimetic (IRF7, Homo sapiens, UniProt Q92985, residues 1-503, S471D/S472D/S475D/S476D/S477D/S483D/S484D/S487D)
Technique: protein-binding microarray
Form: double-stranded DNA, one strand shown
Sample: in vitro
Tested at: 2200 nM top
Notes: 60-bp whole probe
With: salmon DNA 0.4 mg/ml
Reference: random background probes
Reading: higher = stronger binding
Constant ends, left off below: GCCTAGCAC … GTCTTGATTCGCTTGACGCTGCTG
Construct (chain): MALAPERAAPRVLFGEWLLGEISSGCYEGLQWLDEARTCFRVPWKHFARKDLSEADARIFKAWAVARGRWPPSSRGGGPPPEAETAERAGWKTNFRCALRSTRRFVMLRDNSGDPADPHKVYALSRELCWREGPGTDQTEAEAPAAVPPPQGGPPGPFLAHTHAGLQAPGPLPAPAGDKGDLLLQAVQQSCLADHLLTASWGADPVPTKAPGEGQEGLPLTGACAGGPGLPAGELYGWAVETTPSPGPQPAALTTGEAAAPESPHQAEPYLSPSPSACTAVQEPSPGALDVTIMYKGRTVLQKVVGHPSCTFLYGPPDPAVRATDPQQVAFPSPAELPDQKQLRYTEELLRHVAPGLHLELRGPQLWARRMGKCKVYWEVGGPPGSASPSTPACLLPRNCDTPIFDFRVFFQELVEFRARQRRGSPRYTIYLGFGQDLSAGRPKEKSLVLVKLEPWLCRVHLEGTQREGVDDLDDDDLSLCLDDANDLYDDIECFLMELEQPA
`GACGGTTTCCTTATCCTGAAGTGCTAG` — result for “fitted relative affinity”: 2.69 z-score.
Under “fitted relative affinity”, `TTAGGTGTCGGACTGGGTTAGTGCTAG` is recorded as -0.339 z-score.
`TCATTCCTCTCACCTCGGACTGTGCTA` — result for “fitted relative affinity”: 2.34 z-score.
`TTAGATTTCAGTCTCGATTGGTGCTAG`: “fitted relative affinity” 1.29 z-score.
`TTAGGTTTCAGGTTTCGGTTAGTGCTA` — result for “fitted relative affinity”: 6.78 z-score.
For `TCAATTCTAGCCTATAGAACTGTGCTA`, “fitted relative affinity” read 0.115 z-score.

Single results of other studies
`PhoQ, residues 284 288 289 292 302 303 TVTVVA` gave a fold induction of 15.3 (PhoP, residues 12 14 15 18 19 AGCRL (Escherichia coli, UniProt P23836); Sort-seq, measured: YFP reporter; E. coli; PhoQ-PhoP variant library, with: 10 µM Mg2+; reference: high Mg2+ state, higher = stronger signaling).

A few entries again (block 3):
`GACGGTTTCCTTATCCTGAAGTGCTAG` — result for “fitted relative affinity”: 2.69 z-score.
`TTAGGTTTCAGGTTTCGGTTAGTGCTA` — result for “fitted relative affinity”: 6.78 z-score.
`TCATTCCTCTCACCTCGGACTGTGCTA` — result for “fitted relative affinity”: 2.34 z-score.
